Experimental data gathered from unrelated publications.
Compare with care: the assays were run in different laboratories. Several values in a cell are separate wells, animals, samples, runs or records.
Target: Macrophage-stimulating protein receptor (MST1R, Homo sapiens, UniProt Q04912)

SMILES | test | setting | scale | quantity | result
Cc1ccc(-c2c(/C=C(\C#N)C(=O)NC(C)C)n(CCCO)c3ncnc(N)c23)cc1 | cell-free assay, competition with immobilised ligand | 1 µM |  | remaining binding | 96%
NC(=O)[C@@H](O)C[C@H]1CCc2sc3ncnc(O[C@H]4CC[C@H](N5CCOCC5)CC4)c3c21 | enzyme activity, inhibitor | 10 µM |  | inhibition | 5%
CN1CC[C@@H](COc2cnc(C#N)cc2-c2ccn3nc(NC(=O)C4CC4)cc3c2)C1 | enzyme activity, inhibitor | 1 µM |  | inhibition | -8%
CCN1CCN(Cc2ccc(C(=O)Nc3ccc(C)c(NCc4cnc5[nH]ccc5c4OC)c3)cc2C(F)(F)F)CC1 | binding, competition with immobilised ligand | 1 µM |  | remaining binding | 100%
Cc1cccc(O[C@H]2CCC[C@@H](C(C)CNCc3ccncc3)C2)c1 (relative stereo) | cell-free assay | 10 µM |  | inhibition | 0%
COCC12C(=O)NC3C4(C(OC)CC1O)C1CC5(O)C(OC)C(O)C(OC(C)=O)(C1C5OC(=O)c1ccccc1)C3(O)C(OC)C24 (centres unmarked) | kinase activity, inhibitor, ProQinase kinase profiling | 25 µM | reference: control | remaining activity | 80% and 98%
C=CC(=O)N1CCCC(n2c(=O)c3ncccc3n(Cc3ccc(Oc4ccccc4)cc3)c2=O)C1 (centres unmarked) | cell-free assay, competition with immobilised ligand | 1 µM |  | remaining binding | 87%
CNC(=O)C1CCN(c2cc(C)c(F)cc2NC(=O)c2ccc(-c3cc(O)ccc3C)c(C)c2)CC1 | binding, competition with immobilised ligand | 1 µM |  | remaining binding | 99%
Cc1cnc2nc1Nc1cccc(c1)COC/C=C/COCc1cc(ccc1OCCN1CCOCC1)N2 | binding | 0.1 µM |  | remaining binding | 94%
C=CC(=O)N1Cc2nc(-c3cc(-c4cc(Cl)cnc4Cl)c(F)cc3F)n(-c3ccncn3)c2C1 | cell-free assay | 1 µM |  | inhibition | 5.8%
C=CC(=O)Nc1cccc(-c2cnc3[nH]cc(C(=O)NC(C)(C)C)c3n2)c1 | enzyme activity, inhibitor | 0.1 µM |  | inhibition | 19%
COc1c(OCCCN2CCOCC2)ccc2c1N=C(NC(=O)c1cnc(N)nc1)N1CCN=C21 | kinase activity, inhibitor | 1 µM | reference: untreated control | remaining activity | 122%
CN1CCN(Cc2ccc(-c3ccc(CO[C@H]4CCC[C@@H]4NC(=O)c4cc(-c5cnn(C)c5)cnc4N)cc3)cc2)CC1 | enzyme activity, inhibitor | 0.1 µM |  | inhibition | -11%
CNC1C[S+]2CC[S+]3CC[S+](C1)[Ru-4]321([N]=C=S)[n]2c3ccc(OC)cc3c3c4c(c5cc(F)c[n+]1c5c32)C(=O)NC4=O (centres unmarked) | KinomeScan | 0.1 µM | reference: untreated | remaining binding | 96%

A few entries again:
SMILES | test | setting | scale | quantity | result
CN1CCN(Cc2ccc(-c3ccc(CO[C@H]4CCC[C@@H]4NC(=O)c4cc(-c5cnn(C)c5)cnc4N)cc3)cc2)CC1 | enzyme activity, inhibitor | 0.1 µM |  | inhibition | -11%
Cc1cnc2nc1Nc1cccc(c1)COC/C=C/COCc1cc(ccc1OCCN1CCOCC1)N2 | binding | 0.1 µM |  | remaining binding | 94%
